Assay results collected from several papers.
Protocols differ between the studies behind these lines. Numbers after ± are the reported error.

Cn1c(C(F)(F)F)cc(=O)n(-c2cc(Oc3cccnc3OCC(=O)O)c(Cl)cc2F)c1=O — Cmax (Crl:CD(SD) rats, male, plasma; oral diet, 50 ppm in diet, day 1, 90-day toxicity study): 52.3 ng/mL
Cc1nc2cccc(OCC(C)(C)C(=O)NC(C)C)c2c(N)c1C(=O)O — Cmax ratio female over male (Sprague-Dawley rat, plasma; oral, 30 mg/kg, day 1; reference: female over male): 0.69 ± 0.34
Cc1cccc(CNC(=O)c2cn(CCNC(=O)c3ccccc3Sc3c([N+](=O)[O-])ncn3C)c3cc4c(cc3c2=O)OC(F)(F)O4)n1 — Cmax (Sprague-Dawley rat, male, plasma; intramuscular, 10 mg/kg of parent drug): 39.3 ± 12.2 ng/mL
Cc1cc(C(=O)NC(C)(C)COc2cccc3c2C(N)=NS(=O)(=O)N3)cc(C)n1 — Cmax ratio (Sprague-Dawley rat, plasma; oral, 30 mg/kg, vehicle 1% methylcellulose; reference: female over male): 1.18
Cc1cccc(CNC(=O)c2cn(CCNC(=O)c3ccccc3S)c3cc4c(cc3c2=O)OC(F)(F)O4)n1 — Cmax (Sprague-Dawley rat, male, whole blood; intramuscular, 30 mg/kg of parent drug): 388 ± 171 ng/mL
CN1CCC[C@H](CN2c3ccccc3Sc3ccccc32)C1.Cl — Cmax (female Wistar rat, brain; oral, 16 mg/kg): 6600 ng/g
C=CC(=O)N1CCC(Oc2cc3c(Nc4ccc(Cl)c(Cl)c4F)ncnc3cc2OC)CC1 — Cmax ratio (Sprague-Dawley rat male, plasma; oral, 2 mg/kg, with: schisandrin A 20 mg/kg daily 1 weeks pretreatment; reference: no pretreatment): 1.17 fold
CSc1ccccc1C(=O)NCCn1cc(C(=O)NCc2cccc(C)n2)c(=O)c2cc3c(cc21)OC(F)(F)O3 — Cmax (Sprague-Dawley rat, male, whole blood; intravenous, 5 mg/kg of parent compound): 417 ± 45.8 ng/mL
CCCC(CCC)NC(=O)c1ccc2c(c1)OCO2 — Cmax ratio (Sprague-Dawley rats, plasma; oral, 200 mg/kg; reference: female over male): 0.87
CCc1cc(C(=O)NC)c2nccc(N3CCc4c(cc(Cn5ccnc5)cc4-c4cn(C)nc4C(F)(F)F)C3=O)c2c1 — Cmax (Sprague Dawley rat, male, plasma; oral, 100 mg/kg once daily, 7 days, toxicokinetic satellite group): 13100 ng/mL
COC[C@@H](CC(C)C)NC(=O)c1ccc(C)c(C)c1 — Cmax ratio (Sprague-Dawley rats, plasma; oral, 30 mg/kg; reference: female over male): 4.67
C=CC(=O)N1CCC[C@@H](n2nc(-c3ccc(Oc4ccccc4)cc3)c3c(N)ncnc32)C1 — Cmax (male Wistar rat, spleen; oral, 50 mg/kg): 188 ± 59.7 ng/g

Repeated from above:
COC[C@@H](CC(C)C)NC(=O)c1ccc(C)c(C)c1 — Cmax ratio (Sprague-Dawley rats, plasma; oral, 30 mg/kg; reference: female over male): 4.67
